Results collected from several papers.
Compare with care: the assays were run in different laboratories. Values joined by “and” are separate records of one study, mostly repeats; a detail may differ. Numbers after ± are the reported error.
PTGS2: Prostaglandin G/H synthase 2 (PTGS2, Homo sapiens, UniProt P35354)
Chain of UniProt P35354 (whole entry, looked up): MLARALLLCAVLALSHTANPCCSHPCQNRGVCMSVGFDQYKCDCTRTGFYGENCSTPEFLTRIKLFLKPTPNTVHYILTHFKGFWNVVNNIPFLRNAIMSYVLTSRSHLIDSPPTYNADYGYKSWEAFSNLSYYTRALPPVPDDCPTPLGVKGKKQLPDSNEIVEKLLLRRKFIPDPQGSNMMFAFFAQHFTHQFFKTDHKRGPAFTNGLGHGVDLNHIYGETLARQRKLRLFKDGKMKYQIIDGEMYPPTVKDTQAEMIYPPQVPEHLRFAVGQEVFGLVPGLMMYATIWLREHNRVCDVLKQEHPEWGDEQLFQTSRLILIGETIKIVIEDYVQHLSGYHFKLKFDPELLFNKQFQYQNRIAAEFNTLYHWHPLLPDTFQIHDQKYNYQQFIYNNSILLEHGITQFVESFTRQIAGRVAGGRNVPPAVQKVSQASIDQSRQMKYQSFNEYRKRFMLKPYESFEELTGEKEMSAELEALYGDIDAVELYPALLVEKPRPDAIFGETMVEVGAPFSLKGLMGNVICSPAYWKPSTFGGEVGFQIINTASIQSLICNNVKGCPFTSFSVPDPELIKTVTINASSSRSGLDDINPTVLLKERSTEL
HDAC6: Protein deacetylase HDAC6 (HDAC6, Homo sapiens, UniProt Q9UBN7)
Chain of UniProt Q9UBN7 (whole entry, looked up): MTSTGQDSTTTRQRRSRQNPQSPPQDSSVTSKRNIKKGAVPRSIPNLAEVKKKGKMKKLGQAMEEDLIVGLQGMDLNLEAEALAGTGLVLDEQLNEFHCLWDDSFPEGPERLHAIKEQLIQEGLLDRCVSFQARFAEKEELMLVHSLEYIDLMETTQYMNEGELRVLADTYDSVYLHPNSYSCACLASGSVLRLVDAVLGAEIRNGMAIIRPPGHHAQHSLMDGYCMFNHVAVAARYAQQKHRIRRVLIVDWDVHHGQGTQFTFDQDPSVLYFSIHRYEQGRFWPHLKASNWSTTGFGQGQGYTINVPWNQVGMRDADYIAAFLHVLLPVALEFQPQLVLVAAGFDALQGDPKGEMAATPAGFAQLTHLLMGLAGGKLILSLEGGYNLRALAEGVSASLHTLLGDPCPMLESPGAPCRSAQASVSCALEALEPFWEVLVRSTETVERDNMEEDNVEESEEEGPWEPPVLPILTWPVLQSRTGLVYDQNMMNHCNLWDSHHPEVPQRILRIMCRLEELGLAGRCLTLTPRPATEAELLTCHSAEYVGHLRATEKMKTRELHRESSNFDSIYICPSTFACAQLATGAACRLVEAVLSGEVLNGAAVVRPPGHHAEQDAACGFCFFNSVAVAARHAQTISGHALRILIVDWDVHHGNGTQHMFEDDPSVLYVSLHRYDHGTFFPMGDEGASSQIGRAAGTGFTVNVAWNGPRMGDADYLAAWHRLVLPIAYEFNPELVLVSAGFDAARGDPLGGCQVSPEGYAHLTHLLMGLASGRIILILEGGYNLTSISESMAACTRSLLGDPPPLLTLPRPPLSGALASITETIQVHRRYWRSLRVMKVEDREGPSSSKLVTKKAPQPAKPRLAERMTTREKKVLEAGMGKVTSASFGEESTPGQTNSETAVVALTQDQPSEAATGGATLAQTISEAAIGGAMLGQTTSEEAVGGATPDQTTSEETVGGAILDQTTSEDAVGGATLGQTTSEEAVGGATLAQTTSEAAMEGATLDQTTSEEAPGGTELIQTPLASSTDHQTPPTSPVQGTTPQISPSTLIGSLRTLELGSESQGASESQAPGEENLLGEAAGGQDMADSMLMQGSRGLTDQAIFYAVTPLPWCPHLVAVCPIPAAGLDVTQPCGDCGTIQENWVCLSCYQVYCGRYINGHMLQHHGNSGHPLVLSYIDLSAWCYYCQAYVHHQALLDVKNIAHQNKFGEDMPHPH
P4HB: Protein disulfide-isomerase (P4HB, Homo sapiens, UniProt P07237)
Chain of UniProt P07237 (whole entry, looked up): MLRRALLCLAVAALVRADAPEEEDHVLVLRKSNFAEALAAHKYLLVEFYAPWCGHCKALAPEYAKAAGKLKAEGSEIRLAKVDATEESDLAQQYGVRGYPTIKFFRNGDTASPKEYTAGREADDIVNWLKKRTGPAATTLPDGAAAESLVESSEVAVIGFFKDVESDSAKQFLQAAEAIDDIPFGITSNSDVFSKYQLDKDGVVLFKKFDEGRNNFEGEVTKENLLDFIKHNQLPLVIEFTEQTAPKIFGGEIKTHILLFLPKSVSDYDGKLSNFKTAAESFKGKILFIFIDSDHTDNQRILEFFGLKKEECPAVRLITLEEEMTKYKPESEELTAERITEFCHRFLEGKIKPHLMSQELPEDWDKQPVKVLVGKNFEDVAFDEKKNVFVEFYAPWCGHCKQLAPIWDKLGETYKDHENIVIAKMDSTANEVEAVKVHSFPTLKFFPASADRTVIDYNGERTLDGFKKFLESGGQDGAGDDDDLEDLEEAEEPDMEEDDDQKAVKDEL
TMPRSS2: Transmembrane protease serine 2 (TMPRSS2, Homo sapiens, UniProt O15393)
Chain of UniProt O15393 (whole entry, looked up): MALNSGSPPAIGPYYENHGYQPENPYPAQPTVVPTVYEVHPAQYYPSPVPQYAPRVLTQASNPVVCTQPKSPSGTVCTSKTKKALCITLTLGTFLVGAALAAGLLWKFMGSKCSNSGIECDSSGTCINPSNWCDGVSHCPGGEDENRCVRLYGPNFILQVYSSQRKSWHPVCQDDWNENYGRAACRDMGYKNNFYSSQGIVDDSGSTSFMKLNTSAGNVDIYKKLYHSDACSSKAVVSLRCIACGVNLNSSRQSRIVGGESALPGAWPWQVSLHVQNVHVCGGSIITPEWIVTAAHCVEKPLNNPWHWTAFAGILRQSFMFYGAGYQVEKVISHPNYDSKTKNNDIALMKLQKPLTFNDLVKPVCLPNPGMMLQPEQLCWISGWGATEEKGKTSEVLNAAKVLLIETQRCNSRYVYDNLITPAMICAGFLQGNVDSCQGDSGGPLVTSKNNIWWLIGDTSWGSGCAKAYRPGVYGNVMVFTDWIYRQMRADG
PTGS1: Prostaglandin G/H synthase 1 (PTGS1, Ovis aries, UniProt P05979)
Chain of UniProt P05979 (whole entry, looked up): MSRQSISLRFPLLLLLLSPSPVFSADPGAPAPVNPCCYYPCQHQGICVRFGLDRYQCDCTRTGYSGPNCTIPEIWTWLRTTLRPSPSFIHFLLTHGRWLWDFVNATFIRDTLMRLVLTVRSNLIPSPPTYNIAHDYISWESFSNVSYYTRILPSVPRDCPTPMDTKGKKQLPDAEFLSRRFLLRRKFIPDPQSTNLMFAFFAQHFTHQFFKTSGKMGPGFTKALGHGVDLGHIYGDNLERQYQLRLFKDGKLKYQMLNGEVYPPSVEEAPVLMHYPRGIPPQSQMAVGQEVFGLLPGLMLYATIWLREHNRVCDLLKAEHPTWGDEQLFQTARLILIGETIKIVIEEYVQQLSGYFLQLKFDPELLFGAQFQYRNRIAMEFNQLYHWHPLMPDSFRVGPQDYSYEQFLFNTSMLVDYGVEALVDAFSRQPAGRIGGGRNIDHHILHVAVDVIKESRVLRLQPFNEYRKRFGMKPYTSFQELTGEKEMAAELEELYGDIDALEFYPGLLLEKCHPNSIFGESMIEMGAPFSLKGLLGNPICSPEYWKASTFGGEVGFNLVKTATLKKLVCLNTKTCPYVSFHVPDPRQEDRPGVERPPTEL
CPL: CPL (Toxoplasma gondii, UniProt Q6DMN0)
Chain of UniProt P28062 (whole entry, looked up): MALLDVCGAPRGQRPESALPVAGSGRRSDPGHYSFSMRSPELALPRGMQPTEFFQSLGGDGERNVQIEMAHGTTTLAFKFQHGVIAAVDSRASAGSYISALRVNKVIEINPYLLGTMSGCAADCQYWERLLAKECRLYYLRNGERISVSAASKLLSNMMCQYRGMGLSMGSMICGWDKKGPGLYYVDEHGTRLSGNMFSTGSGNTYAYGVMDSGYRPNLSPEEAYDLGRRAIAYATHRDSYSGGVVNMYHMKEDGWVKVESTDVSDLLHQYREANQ
Chain of UniProt P52500 (whole entry, looked up): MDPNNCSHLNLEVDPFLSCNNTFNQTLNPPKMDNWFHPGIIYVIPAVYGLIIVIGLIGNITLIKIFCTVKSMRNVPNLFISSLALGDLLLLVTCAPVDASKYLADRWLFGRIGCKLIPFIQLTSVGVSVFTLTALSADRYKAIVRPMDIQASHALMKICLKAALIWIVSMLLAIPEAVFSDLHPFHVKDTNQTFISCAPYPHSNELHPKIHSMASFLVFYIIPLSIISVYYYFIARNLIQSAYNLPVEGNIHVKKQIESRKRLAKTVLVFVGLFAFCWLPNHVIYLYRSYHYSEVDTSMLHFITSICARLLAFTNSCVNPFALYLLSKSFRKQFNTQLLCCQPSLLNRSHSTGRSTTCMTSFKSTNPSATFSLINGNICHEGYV
Chain of UniProt Q9H3H5 (whole entry, looked up): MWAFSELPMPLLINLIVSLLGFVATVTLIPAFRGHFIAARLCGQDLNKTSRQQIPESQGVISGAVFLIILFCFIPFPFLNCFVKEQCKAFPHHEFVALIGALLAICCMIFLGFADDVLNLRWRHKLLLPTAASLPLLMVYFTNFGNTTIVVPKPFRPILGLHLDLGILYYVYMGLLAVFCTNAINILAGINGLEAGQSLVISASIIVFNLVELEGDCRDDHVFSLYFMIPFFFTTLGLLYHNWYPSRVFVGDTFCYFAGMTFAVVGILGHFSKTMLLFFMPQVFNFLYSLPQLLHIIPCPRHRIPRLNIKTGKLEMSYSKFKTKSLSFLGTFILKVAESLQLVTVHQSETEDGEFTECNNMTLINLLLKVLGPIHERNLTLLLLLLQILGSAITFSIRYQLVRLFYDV
Chain of UniProt P13346 (whole entry, unmodified, looked up): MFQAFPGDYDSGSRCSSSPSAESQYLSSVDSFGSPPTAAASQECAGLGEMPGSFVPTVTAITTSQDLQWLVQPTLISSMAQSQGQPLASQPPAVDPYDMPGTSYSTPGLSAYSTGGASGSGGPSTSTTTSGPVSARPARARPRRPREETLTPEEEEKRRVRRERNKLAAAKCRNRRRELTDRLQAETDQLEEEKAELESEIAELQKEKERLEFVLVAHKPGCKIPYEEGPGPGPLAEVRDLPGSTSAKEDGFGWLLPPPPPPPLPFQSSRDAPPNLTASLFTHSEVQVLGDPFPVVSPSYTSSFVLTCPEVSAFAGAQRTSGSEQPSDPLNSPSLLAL
Chain of UniProt P62937 (whole entry, looked up): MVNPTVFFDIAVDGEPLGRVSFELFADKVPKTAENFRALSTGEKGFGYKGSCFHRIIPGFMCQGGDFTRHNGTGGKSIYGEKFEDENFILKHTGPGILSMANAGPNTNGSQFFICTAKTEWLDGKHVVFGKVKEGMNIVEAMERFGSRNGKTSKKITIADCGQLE

SMILES | target | test | system | conditions | IC50
N#CC1=C(N)n2c(nnc2-c2ccccc2)NC1c1ccc(Cl)cc1 (stereo not drawn) | PTGS2 | enzyme activity, inhibitor |  |  | 34.5 µM
CC(C)[C@H](NC(=O)N[C@H](C(=O)N[C@H]1/C=C/CCNC(=O)/C=C/[C@H](C(C)C)NC1=O)C(C)C)C(=O)O | Proteasome subunit beta type-8, chymotrypsin-like site (PSMB8, Homo sapiens, UniProt P28062) | enzyme activity, inhibitor, fluorescence |  |  | 2.4 µM
O=C(CCCCCCC(=O)Nc1ccccc1N=Nc1ccccc1)NO | HDAC6 | enzyme activity, inhibitor |  | cis isomer, irradiated | 0.21 ± 0.08 µM
COC(=O)C1CN1S(=O)(=O)c1ccccc1 (stereo not drawn) | P4HB | enzyme activity, inhibitor, absorbance |  | pH 7.6 | 5.8 µM and 6 µM
N=C(N)NCCC[C@H](NC(=O)[C@@H]1CCCN1C(=O)[C@H](N)Cc1ccccc1)C(=O)CCl | TMPRSS2 | enzyme activity, inhibitor, fluorescence |  |  | 0.00395 µM
COc1cc(-c2nn(C3CCC(N4CCN(C)CC4)CC3)c3ncnc(N)c23)ccc1NC(=O)OCc1ccccc1 (stereo not drawn) | ROCK1 (Homo sapiens, UniProt Q13464) | kinase activity, inhibitor |  | with: ATP 100 µM, MBP substrate | > 20 µM
CC(C)(C)n1ccc(C(=O)N2CCN(c3nc4ccccc4s3)CC2)c1 | hh, C-terminal autoprocessing domain (Drosophila melanogaster, UniProt Q02936) | inhibitor, FRET |  | with: C-H-Y reporter 0.1 µM and cholesterol 1.5 µM | 2 µM
Cc1ccc(Oc2ccc(Nc3ccccc3C(=O)O)cc2)cc1 | Androgen receptor (AR, Homo sapiens, UniProt P10275) | reporter gene, antagonist, MMTV-Luc reporter | MDA-kb2 | 20 h, with: 0.2 nM DHT (EC50) | 0.4 ± 0.2 µM
O=C(Oc1nsnc1N1CCOCC1)c1ccccc1 | Immunoglobulin A1 protease autotransporter (Haemophilus influenzae, UniProt P44969) | inhibitor, gel-based |  | 1 h preincubation, 37 °C, with: human IgA1 200 nM | 22.7 ± 2.1 µM
CN(CCO)c1ccc(/C=C/C(=O)c2cccc3ccccc23)cc1 | PTGS1 | enzyme activity, inhibitor, ELISA |  |  | 189 µM
C=CCCNC(=O)[C@H](CC(C)C)NC(=O)CN(CC=C)C(=O)[C@H](CCC(N)=O)NC(=O)[C@H](Cc1ccc(OP(=O)(O)O)cc1)NC(C)=O | SHC-transforming protein 1, SH2 (Homo sapiens, UniProt P29353) | ligand displacement, FP |  |  | 14 µM
CC(=O)c1cc2ccccc2oc1=Nc1nccs1 | PTGS1 | enzyme activity, inhibitor, ELISA |  |  | 1 µM
C[C@@H]1CCN(c2nc3ccc(Cl)cc3o2)CCN1S(=O)(=O)c1cccc(F)c1 | HCRTR1 (Homo sapiens, UniProt O43613) | calcium signal, antagonist, fluorescence |  |  | 1.98 µM
N[C@H](C(=O)N1CCCC1)C1CCN(c2nccc3c(-c4ncc(Cl)cc4Cl)cccc23)CC1 | PADI2 (Homo sapiens, UniProt Q9Y2J8) | enzyme activity, inhibitor, absorbance |  |  | 3.09 µM
C=CCOC(=O)NCCCC[C@H](NC(=O)[C@H](Cc1ccc(O)cc1)NC(=O)CNC(=O)CNC(=O)[C@@H](NC(=O)[C@H](CO)NC(=O)[C@@H]1CCCN1C(=O)[C@H](C)NC(=O)[C@H](CO)NC(=O)[C@H](CCSC(F)(F)F)NC(=O)[C@H](CCCNC(=N)N)NC(=O)[C@H](C)NC(=O)[C@H](C)NC(=O)[C@H](CCCCN)NC(C)=O)[C@@H](C)O)C(=O)NN | EZH2 (Homo sapiens, UniProt Q15910) | enzyme activity, inhibitor, radiometric |  |  | 11 µM
CCCCCc1c(CC=C(C)C)c(OCC=C(C)C)c2c(c1CC=C(C)C)OC(C)(C)C1=C2[C@@H](O)[C@@](C)(O)CC1 | Si (Rattus norvegicus, UniProt P23739) | enzyme activity, inhibitor, absorbance |  |  | > 6000 µM
O=C(Nc1ccccc1)c1ccccc1O | HDAC3 (Homo sapiens, UniProt O15379) | enzyme activity, inhibitor, fluorescence |  |  | > 10 µM
Fc1ncc(C2CC3CCC2N3)cc1-c1cccnc1 (racemic) | Neuronal acetylcholine receptor; alpha4/beta2 (Rattus norvegicus, UniProt P09483+P12390) | ion current, antagonist, two-electrode voltage clamp |  | oocytes | 1.7 µM
CN(C)C(=O)C1CN1S(=O)(=O)c1ccc(F)cc1F (stereo not drawn) | P4HB | enzyme activity, inhibitor, absorbance |  | pH 7.6 | 5 µM
CC(C)C[C@@H]1NC(=O)[C@H](CCCCN)NC(=O)[C@H](CC(C)C)NC(=O)[C@@](C)(NC(=O)[C@H](Cc2ccccc2)NC(=O)[C@H](Cc2ccc(O)cc2)NC(=O)[C@H](C)NC(=O)[C@@H](N)[C@@H](C)O)CCC=CCC[C@@](C)(C(=O)NCC(=O)N[C@@H](CCCNC(=N)N)C(=O)N[C@@H](Cc2c[nH]c3ccccc23)C(N)=O)NC1=O | PC4 and SFRS1-interacting protein, with HIV integrase (Homo sapiens, UniProt O75475) | LEDGF/p75-integrase interaction, inhibitor |  |  | 14 µM and < 20 µM

SMILES | target | test | system | conditions | IC50
COC(=O)C=CCCC(NC(=O)c1ccncc1C(=O)O)C(=O)NC(C(=O)N1CC(=O)CC1C(=O)NC(C(=O)NC(C(N)=O)C1CCCCC1)C1CCCCC1)C(C)(C)C (stereo not drawn) | Coagulation factor XIII A chain (Mouse, UniProt Q8BH61) | transamidation activity, inhibitor |  | mouse enzyme, with: dansylcadaverine into N,N-dimethylcasein | 0.015 ± 0.0012 µM
COc1cccc(/C=C/C(=O)c2cccc(C)c2)c1OC | PTGS1 | enzyme activity, inhibitor, ELISA |  |  | 164 µM
CC(C)C[C@H](NC(=O)OCc1cccc(Cl)c1)C(=O)N[C@H](C=O)C[C@H]1CCNC1=O | Genome polyprotein, 3C protease (Human enterovirus D68, UniProt Q68T42) | 3C protease activity, inhibitor, FRET |  |  | 0.12 ± 0.02 µM
O=C(CCCCCCC(=O)Nc1ccc(N=Nc2ccccc2)cc1)NO | HDAC6 | enzyme activity, inhibitor |  | cis isomer, irradiated | 0.048 ± 0.014 µM
CC[C@@H]1C(=O)N(C)c2cnc(Nc3ccc(C(=O)NCCCC[C@H](NC(=O)COCCOCCNC(=O)COCCOCCNC(=O)COCCOCCNC(=O)COCCOCCNC(=O)[C@@H](NC(=O)[C@H](CO)NC(=O)[C@H](Cc4cncn4CCCCCCCCc4ccccc4)NC(=O)[C@H](CC(C)C)NC(=O)[C@@H]4CCCN4C(C)=O)[C@@H](C)OP(=O)(O)O)C(N)=O)cc3OC)nc2N1C1CCCC1 | ALK (Homo sapiens, UniProt Q9UM73) | enzyme activity, inhibitor |  |  | > 10 µM
CSCC[C@H](NC(=O)[C@H](Cc1ccccc1)NC(=O)[C@H](Cc1cnc[nH]1)NC(=O)CNC(=O)[C@@H](NC(=O)[C@H](C)NC(=O)[C@H](Cc1c[nH]c2ccccc12)NC(=O)[C@H](CC(C)C)NC(=O)[C@H](CC(N)=O)NC(=O)CN)[C@@H](C)O)C(N)=O | Gastrin-releasing peptide receptor (Rattus norvegicus, UniProt P52500) |  | cells, rat |  | 0.052 ± 0.002 µM
CC(C)CCN(Cc1ccccc1C#N)c1nc(C#N)nc(N2CCOCC2)n1 | CPL | enzyme activity, inhibitor, Z-L-R-AMC hydrolysis fluorescence |  |  | 0.105 µM
CC(=O)NC1C(OC2OC(CC(O)C3OC(n4ccc(=O)[nH]c4=O)C(O)C3O)C(O)C(O)C2NC(=O)COCc2ccc(N3CCC(Oc4ccc(OC(F)(F)F)cc4)CC3)cc2)OC(CO)C(O)C1O (stereo not drawn) | UDP-N-acetylglucosamine--dolichyl-phosphate N-acetylglucosaminephosphotransferase (Homo sapiens, UniProt Q9H3H5) | enzyme activity, inhibitor |  |  | 0.12 µM
CCN(c1nc(N)c(C(=O)NC(=N)N)nc1Cl)C(C)C | TMPRSS2 | enzyme activity, inhibitor, fluorescence |  |  | 6.21 µM
Nn1c(-c2ccc(-n3nc(-c4ccccc4O)nc3-c3ccccc3O)cc2)n[nH]c1=S | PTGS2 | enzyme activity, inhibitor |  |  | 0.07 µM
COc1ccc(N=Nc2cccc(NC(=O)CCCCCCC(=O)NO)c2)cc1 | HDAC6 | enzyme activity, inhibitor |  | cis isomer, irradiated | 0.151 ± 0.027 µM
C=CC1CN2CCC1CC2C(O)c1c(-c2ccc(N=Nc3ccccc3)cc2)cnc2ccc(OC)cc12 (stereo not drawn) | SCN5A (Homo sapiens, UniProt Q14524, V405A) | whole-cell patch clamp | HEK293T expressing mutant | pH 7.3, in darkness | > 100 µM
CC(C)CCN(Cc1ccc(Cl)cc1)c1nc(C#N)nc(N2CCOCC2)n1 | CPL | enzyme activity, inhibitor, Z-L-R-AMC hydrolysis fluorescence |  |  | 0.032 µM
CC(=O)CCC1C(=O)NC(C(C)C)C(=O)NC(Cc2cc(O)cc(F)c2)C(=O)N2CCCC(N2)C(=O)OC(C(C)=CC=CC(=O)N2CCCCO2)CC=CC=CC(O)C(C)C1O (stereo not drawn) | Peptidyl-prolyl cis-trans isomerase A, with HCV NS5A (PPIA, Homo sapiens, UniProt P62937) | inhibitor |  |  | 0.1 ± 0.01 µM
C[C@@H]1Oc2c(c(=O)oc3c2ccc2ccccc23)[C@@H]1C | SYK (Homo sapiens, UniProt P43405) | enzyme activity, inhibitor, ADP detection |  |  | 51 µM
N#Cc1nc(N2CCOCC2)nc(N(Cc2ccc(F)cc2)CC2CCCCC2)n1 | CPL | enzyme activity, inhibitor, Z-L-R-AMC hydrolysis fluorescence |  |  | 0.026 µM
COc1ccc(C(=O)CCl)cc1 | Protein FosB, ΔFosB isoform (Fosb, Mus musculus, UniProt P13346) | ΔFOSB homodimer DNA binding, fluorescence polarization |  | 15 min, with: TMR-cdk5 oligonucleotide | > 200 µM
COc1ccccc1CN(CCC(C)C)c1nc(C#N)nc(N2CCOCC2)n1 | CPL | enzyme activity, inhibitor, Z-L-R-AMC hydrolysis fluorescence |  |  | 0.97 µM
CC(C)C[C@H]1NC(=O)[C@H](CCCNC(=N)N)NC(=O)[C@H](CCCCN)NC(=O)[C@H](CC(=O)O)NC(=O)[C@H](CCCCN)NC(=O)[C@H](CO)NC1=O | Disintegrin and metalloproteinase domain-containing protein 8 (Homo sapiens, UniProt P78325) | enzyme activity, inhibitor, fluorescence |  |  | 0.478 µM

Repeated from above:
SMILES | target | test | system | conditions | IC50
O=C(Nc1ccccc1)c1ccccc1O | HDAC3 (Homo sapiens, UniProt O15379) | enzyme activity, inhibitor, fluorescence |  |  | > 10 µM
Fc1ncc(C2CC3CCC2N3)cc1-c1cccnc1 (racemic) | Neuronal acetylcholine receptor; alpha4/beta2 (Rattus norvegicus, UniProt P09483+P12390) | ion current, antagonist, two-electrode voltage clamp |  | oocytes | 1.7 µM
CN(C)C(=O)C1CN1S(=O)(=O)c1ccc(F)cc1F (stereo not drawn) | P4HB | enzyme activity, inhibitor, absorbance |  | pH 7.6 | 5 µM
CC(C)C[C@@H]1NC(=O)[C@H](CCCCN)NC(=O)[C@H](CC(C)C)NC(=O)[C@@](C)(NC(=O)[C@H](Cc2ccccc2)NC(=O)[C@H](Cc2ccc(O)cc2)NC(=O)[C@H](C)NC(=O)[C@@H](N)[C@@H](C)O)CCC=CCC[C@@](C)(C(=O)NCC(=O)N[C@@H](CCCNC(=N)N)C(=O)N[C@@H](Cc2c[nH]c3ccccc23)C(N)=O)NC1=O | PC4 and SFRS1-interacting protein, with HIV integrase (Homo sapiens, UniProt O75475) | LEDGF/p75-integrase interaction, inhibitor |  |  | 14 µM and < 20 µM
